# Results collected from several papers.
# Protocols differ between the studies behind these lines.
# Organism: Escherichia coli
Structure (SMILES),assay,system,setting,MIC
CCCCCCCCCCCCCCCCCCCCCCSCC1OC(OC2C(N)CC(N)C(OC3OC(CN)C(O)CC3N)C2O)C(O)C(N)C1O (stereo not shown),,BL21(DE3) pET22b,,> 150 µg/mL
CC(C)[C@H](NC(=O)[C@H](CCCCN)NC(=O)[C@H](CCCNC(=N)N)NC(=O)CNC(=O)[C@H](C)NC(=O)[C@H](CC(N)=O)NC(=O)[C@H](CCCNC(=N)N)NC(=O)[C@@H](NC(=O)[C@H](CCCCN)NC(=O)[C@H](CC(=O)O)NC(=O)[C@@H](NC(=O)[C@@H](NC(=O)[C@H](CCCNC(=N)N)NC(=O)[C@H](CCCNC(=N)N)NC(=O)[C@H](Cc1c[nH]c2ccccc12)NC(=O)[C@H](Cc1c[nH]c2ccccc12)NC(=O)CN)[C@@H](C)O)C(C)C)C(C)C)C(=O)O,,ATCC 25922,"18 h, 37 °C",> 256 µg/mL
CCCCCCCCCCCCCCCCC(=O)N[C@@H](CCCCN)C(=O)N[C@@H](CCCCN)C(=O)N[C@@H](CCCNC(=N)N)C(=O)N[C@@H](CCCCN)C(=O)N[C@@H](CCCCN)C(N)=O,broth microdilution,"K12, water pH 7","18 h, 37 °C",8 µg/mL
CCO[C@H]1[C@H](O)[C@@H](N)[C@@H](O[C@H]2[C@H](O[C@@H]3O[C@H](CO)[C@@H](O[C@H]4O[C@@H](CN)[C@@H](O)[C@H](O)[C@H]4N)[C@H]3O)[C@@H](O)[C@H](N)C[C@@H]2N)O[C@@H]1CO,broth microdilution,clinical isolate AG 055,,32 µg/mL
Cc1cc(N)c2cc(NC(=O)c3ccc4c(-c5ccccc5O)cccc4c3)ccc2n1,,hyperporinated wild type,,25 µM
CC[C@H](C)[C@H](NC(=O)[C@H](CCCN)NC(=O)[C@H](CC(N)=O)NC(=O)[C@H](Cc1c[nH]c2ccccc12)NC(=O)[C@H](Cc1ccccc1)NC(=O)[C@H](CCCN)NC(=O)[C@H](CCCNC(=N)N)NC(=O)[C@H](CC(C)C)NC(=O)[C@H](Cc1c[nH]c2ccccc12)NC(=O)[C@H](CCCN)NC(=O)[C@H](CCCNC(=N)N)NC(=O)[C@H](CC(C)C)NC(=O)CNC(C)=O)C(=O)N[C@@H](CCCN)C(=O)N[C@@H](CCCNC(=N)N)C(N)=O,broth microdilution,ATCC 25922,,6.25 µM
COc1cc(/C=C/C(=O)NCCCCCC(=O)N[C@@H](CCCNC(=N)N)C(=O)N[C@@H](CC(C)C)C(=O)N[C@@H](CC(C)C)C(=O)N[C@@H](CCCNC(=N)N)C(=O)N[C@@H](CCCNC(=N)N)C(=O)N[C@@H](CC(C)C)C(=O)N[C@@H](CC(C)C)C(=O)N[C@@H](CCCNC(=N)N)C(N)=O)ccc1O,broth microdilution,ATCC 25922,"24 h, 37 °C",36 µM
CCCCCCCCCCCC(=O)N[C@@H](CCCCN)C(=O)N[C@@H](CCCCN)C(=O)N[C@@H](CCCCN)C(=O)N[C@@H](CCCCN)C(=O)N[C@@H](CCCCN)C(N)=O,broth microdilution,K12,"16-24 h, 37 °C, prepared at pH 7",≥ 32 µg/mL
C[C@@](O)(C(F)F)[C@H](NC(=O)c1ccc(C#CC#CC2CC2)cc1)C(=O)NO,,ATCC 25922,,0.02 µg/mL
CC(C)C[C@@H]1NC(=O)[C@H](C)NC(=O)[C@H](NC(=O)[C@H](CO)NC(=O)[C@@H](CCCCN)NC(=O)[C@@H](CC(C)C)NC(=O)[C@@H](N)Cc2ccccc2)[C@H](C)OC(=O)[C@H](CC(C)C)NC1=O,,ATCC 10798,TFA salt,> 32 µg/mL
CC[C@H](C)[C@H](N)C1=N[C@H](C(=O)N[C@@H](CC(C)C)C(=O)N[C@H](CCC(=O)O)C(=O)N[C@H](C(=O)N[C@H]2CCCCNC(=O)[C@H](CC(N)=O)NC(=O)[C@@H](CC(=O)O)NC(=O)[C@H](Cc3c[nH]cn3)NC(=O)[C@@H](Cc3ccc(-c4ccccc4)cc3)NC(=O)[C@H]([C@@H](C)CC)NC(=O)[C@@H](CCCN)NC2=O)[C@@H](C)CC)CS1,broth microdilution,"ATCC 25922, LB medium","18 h, 37 °C, together with: ZnSO4 0.3 mM",> 64 µg/mL
CCCCCCCCCCCC[S+]([O-])CC1OC(OC2C(N)CC(N)C(OC3OC(CN)C(O)CC3N)C2O)C(O)C(N)C1O (mixture of isomers),,"TolC, strain R",,2.3 µg/mL
CC[C@H](C)[C@H](NC(=O)[C@H](CCCCN)NC(=O)[C@@H]1CCCN1C(=O)[C@@H](NC(=O)[C@H](CC(C)C)NC(=O)[C@H](CCCCN)NC(=O)[C@H](CC(C)C)NC(=O)[C@@H](NC(=O)[C@H](CO)NC(=O)CNC(=O)[C@H](Cc1ccccc1)NC(=O)[C@@H](N)Cc1ccccc1)C(C)C)[C@@H](C)CC)C(=O)N[C@@H](CC(C)C)C(N)=O,broth microdilution,K12,,25 µM
CCCCCCSCC1OC(OC2C(N)CC(N)C(OC3OC(CN)C(O)CC3N)C2O)C(O)C(N)C1O (stereo not shown),,BL21(DE3) pET22b,,> 150 µg/mL
CC[C@H](C)[C@H](NC(=O)[C@H](CCN)NC(=O)[C@H](Cc1ccccc1)NC(=O)[C@H](Cc1ccccc1)NC(=O)CCCCCO)C(=O)N[C@@H](CCN)C(=O)N[C@H](Cc1ccccc1)C(=O)N[C@@H](CC(C)C)C(=O)N[C@@H](CCN)C(=O)N[C@@H](C(=O)N[C@@H](CC(C)C)C(=O)N[C@@H](CO)C(N)=O)C(C)C,,,"24 h, 37 °C",12.5 µM
CC(C)[C@@H]1NC(=O)[C@@H]2CCCN2C(=O)[C@@H](C)NC(=O)[C@H](CO)NC(=O)[C@H](C)NC(=O)[C@H](C(C)(C)C)NC(=O)[C@H](CCO)NC(=O)[C@H](Cc2c[nH]c3ccccc23)NC(=O)[C@H](CCO)NC(=O)[C@@H](CCN)NC(=O)[C@H](CCC(N)=O)NC(=O)[C@H](CCN)NC(=O)[C@H](Cc2ccc(O)cc2)NC(=O)[C@H]([C@@H](C)O)NC1=O,broth microdilution,"ATCC 35218, CAMHB with polysorbate-80",16 h,> 64 µg/mL
CC[C@H](C)[C@H](NC(=O)[C@@H](Cc1ccccc1)NC)C(=O)N[C@@H](CO)C(=O)N[C@H](CCCNC(=N)N)C(=O)N[C@@H](C(=O)N[C@H](C(=O)OC[C@H](N)C(=O)N[C@H]1C(=O)N[C@@H](C)C(=O)N[C@@H](C2CCCCC2)C(=O)N[C@@H]([C@@H](C)CC)C(=O)O[C@H]1C)[C@@H](C)CC)[C@@H](C)CC,broth microdilution,"ATCC 10798, Mueller-Hinton broth","16 h, 37 °C",> 8 µg/mL
CC[C@@H](C)[C@@H](NC(=O)[C@@H](C)NC(=O)[C@@H](CCCCN)NC(=O)[C@@H](CC(C)C)NC(=O)[C@@H](C)NC(=O)[C@H](NC(=O)[C@@H](Cc1c[nH]cn1)NC(=O)[C@@H](CC(C)C)NC(=O)[C@H](NC(=O)[C@H](NC(=O)[C@@H](CCCCN)NC(=O)[C@@H](CCCCN)NC(=O)[C@@H](C)NC(=O)[C@@H](CO)NC(=O)[C@@H](CCCCN)NC(=O)[C@@H](Cc1ccccc1)NC(=O)[C@H](NC(=O)[C@@H](CCCCN)NC(=O)[C@@H](CC(C)C)NC(=O)[C@@H](Cc1ccccc1)NC(=O)[C@@H](CO)NC(=O)[C@@H](CCCCN)NC(=O)[C@@H](Cc1c[nH]c2ccccc12)NC(=O)[C@@H](CCCCN)NC(C)=O)[C@H](C)O)[C@H](C)O)C(C)C)[C@H](C)O)C(=O)N[C@H](CO)C(=O)N[C@H](CO)C(N)=O,,UB1005,,2 µg/mL
CC1C(=NNC(=O)c2ccncc2)C(C)C(c2ccc(Br)cc2)OC1c1ccc(Br)cc1 (stereo not shown),"microbial growth, broth dilution",MTCC443,24 h,12.5 µg/mL
OB(O)c1cnn(-c2cccc(Cl)c2)c1,bacterial growth,CTX-M-14 ESBL clinical isolate,cefotaxime alone,32 µg/mL
CC[C@H](C)[C@H](NC(=O)[C@H](CCCNC(=N)N)NC(=O)[C@@H](N)CCCNC(=N)N)C(=O)N[C@@H](CCCNC(=N)N)C(=O)N[C@@H](Cc1ccccc1)C(=O)N[C@@H](CCCNC(=N)N)C(=O)N1CCC[C@H]1C(=O)N1CCC[C@H]1C(=O)N[C@@H](Cc1ccc(O)cc1)C(=O)N[C@@H](CC(C)C)C(=O)N1CCC[C@H]1C(=O)N[C@@H](CCCNC(=N)N)C(=O)N1CCC[C@H]1C(=O)NCC(=O)N[C@@H](CCCNC(=N)N)C(=O)N[C@@H](CCCNC(=N)N)C(=O)N1CCC[C@H]1C(=O)N[C@@H](CCCNC(=N)N)C(=O)N[C@@H](Cc1ccccc1)C(=O)N1CCC[C@H]1C(=O)N1CCC[C@H]1C(=O)N1CCC[C@H]1C(=O)N[C@@H](Cc1ccccc1)C(=O)N1CCC[C@H]1C(=O)N[C@H](C(=O)N1CCC[C@H]1C(=O)N[C@@H](CCCNC(=N)N)C(=O)N[C@H](C(=O)N1CCC[C@H]1C(=O)N[C@@H](CCCNC(=N)N)C(=O)N[C@H](C(=O)N1CCC[C@H]1C(=O)O)[C@@H](C)CC)[C@@H](C)CC)[C@@H](C)CC,broth microdilution,"BW25113 wild type, Mueller-Hinton broth","overnight, 37 °C",1.2 µM
CCCCCCCCCCCCCC(=O)NCCCC[C@H](N)C(=O)N[C@@H](CCCCN)C(=O)N[C@@H](CCCCN)C(=O)N[C@@H](CCCCN)C(=O)N[C@@H](CCCCN)C(=O)N[C@@H](CCCCN)C(N)=O,broth microdilution,"K12, water pH 7","18 h, 37 °C",32 µg/mL
CC[C@H](C)[C@H](NC(=O)[C@H](C)NC(=O)[C@@H](NC(=O)[C@H](CC(=O)O)NC(=O)[C@H](CCCCN)NC(=O)[C@H](CO)NC(=O)[C@@H](NC(=O)[C@H](CC(N)=O)NC(=O)[C@H](C)NC(=O)[C@@H](NC(=O)[C@H](CCC(=O)O)NC(=O)[C@H](CCCCN)NC(=O)[C@@H](NC(=O)[C@@H](NC(=O)[C@H](Cc1c[nH]cn1)NC(=O)[C@H](CCCCN)NC(=O)[C@@H](NC(=O)[C@H](CCCCN)NC(=O)[C@H](CCCCN)NC(=O)[C@@H](NC(=O)[C@H](CC(C)C)NC(=O)[C@H](CCCCN)NC(=O)[C@H](CC(N)=O)NC(=O)[C@H](Cc1ccccc1)NC(=O)[C@H](CCCNC(=N)N)NC(=O)[C@H](CCCCN)NC(=O)[C@H](CCCNC(=N)N)NC(=O)[C@H](Cc1ccccc1)NC(=O)CN)C(C)C)C(C)C)[C@@H](C)O)[C@@H](C)CC)[C@@H](C)O)C(C)C)C(C)C)C(=O)N[C@H](C(=O)N[C@@H](C)C(=O)NCC(=O)N[C@@H](CO)C(=O)NCC(=O)N[C@H](C(=O)N[C@@H](C)C(=O)N[C@H](C(=O)NCC(=O)N[C@@H](C)C(=O)N[C@@H](C)C(=O)N[C@@H](CCSC)C(N)=O)C(C)C)C(C)C)C(C)C,,"isolate RKI 6 A-6, CAMHB",,4 µg/mL
CC[C@H](C)[C@H](NC(=O)[C@H](CC(C)C)NC(=O)[C@H](CCC(=O)O)NC(=O)[C@H](CO)NC(=O)[C@H](CCCNC(=N)N)NC(=O)[C@@H](N)CO)C(=O)N[C@H](C(=O)N[C@@H](CCCNC(=N)N)C(=O)N[C@@H](CCC(N)=O)C(=O)N[C@@H](CCCNC(=N)N)C(=O)N[C@@H](CC(C)C)C(=O)N[C@@H](Cc1ccccc1)C(N)=O)C(C)C,broth microdilution,Mueller Hinton broth,,> 400 µg/mL
CNc1nc(SC)nc2ccccc12,broth microdilution,3,,> 64 µM
